# Results of several laboratories.
# A part holds a random share of what one study measured. “And” joins repeats or separate records; there may be more than shown.
# Sequence of UniProt O15111 (whole entry, looked up): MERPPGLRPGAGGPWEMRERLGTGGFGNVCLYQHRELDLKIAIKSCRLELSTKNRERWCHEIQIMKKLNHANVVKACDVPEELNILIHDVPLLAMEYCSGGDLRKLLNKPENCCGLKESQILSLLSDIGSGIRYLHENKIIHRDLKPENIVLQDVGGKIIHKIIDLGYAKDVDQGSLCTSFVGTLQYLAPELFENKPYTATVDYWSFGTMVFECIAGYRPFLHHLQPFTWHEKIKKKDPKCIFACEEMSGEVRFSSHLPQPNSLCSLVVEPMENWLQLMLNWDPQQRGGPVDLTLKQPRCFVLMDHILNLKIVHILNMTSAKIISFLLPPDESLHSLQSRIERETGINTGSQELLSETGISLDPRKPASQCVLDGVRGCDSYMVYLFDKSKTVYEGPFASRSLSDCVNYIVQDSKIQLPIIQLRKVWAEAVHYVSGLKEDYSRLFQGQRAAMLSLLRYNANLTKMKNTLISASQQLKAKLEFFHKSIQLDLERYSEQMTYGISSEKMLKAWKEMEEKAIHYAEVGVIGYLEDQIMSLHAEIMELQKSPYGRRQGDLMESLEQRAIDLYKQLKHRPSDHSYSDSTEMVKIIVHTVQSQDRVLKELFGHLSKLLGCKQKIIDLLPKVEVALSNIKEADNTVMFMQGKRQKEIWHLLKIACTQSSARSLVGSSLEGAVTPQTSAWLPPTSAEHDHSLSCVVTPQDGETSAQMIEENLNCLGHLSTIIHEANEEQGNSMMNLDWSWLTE
# Sequence of UniProt Q13163 (whole entry, looked up): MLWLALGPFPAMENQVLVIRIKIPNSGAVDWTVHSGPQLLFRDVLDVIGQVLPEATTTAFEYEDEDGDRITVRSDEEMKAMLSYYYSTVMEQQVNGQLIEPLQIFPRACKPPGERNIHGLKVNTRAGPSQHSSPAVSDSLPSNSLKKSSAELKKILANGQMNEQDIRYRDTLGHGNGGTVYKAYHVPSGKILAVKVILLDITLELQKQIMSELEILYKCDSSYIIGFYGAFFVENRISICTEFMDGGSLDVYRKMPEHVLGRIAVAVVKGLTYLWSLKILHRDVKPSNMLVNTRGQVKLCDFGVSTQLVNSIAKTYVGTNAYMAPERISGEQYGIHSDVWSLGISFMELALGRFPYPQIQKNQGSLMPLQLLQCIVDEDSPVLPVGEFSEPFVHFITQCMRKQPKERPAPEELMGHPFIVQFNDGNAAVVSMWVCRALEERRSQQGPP
# Sequence of UniProt P53778 (whole entry, looked up): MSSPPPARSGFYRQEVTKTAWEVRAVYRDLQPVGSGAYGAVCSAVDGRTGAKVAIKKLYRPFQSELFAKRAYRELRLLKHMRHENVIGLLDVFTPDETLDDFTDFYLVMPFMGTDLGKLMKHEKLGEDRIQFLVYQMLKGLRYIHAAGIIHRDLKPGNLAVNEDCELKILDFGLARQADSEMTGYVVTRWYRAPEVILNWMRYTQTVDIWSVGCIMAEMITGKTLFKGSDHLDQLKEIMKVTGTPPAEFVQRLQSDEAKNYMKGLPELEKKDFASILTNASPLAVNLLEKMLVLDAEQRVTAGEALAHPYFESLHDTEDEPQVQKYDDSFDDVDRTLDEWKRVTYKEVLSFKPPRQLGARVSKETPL
# Sequence of UniProt P52564 (whole entry, looked up): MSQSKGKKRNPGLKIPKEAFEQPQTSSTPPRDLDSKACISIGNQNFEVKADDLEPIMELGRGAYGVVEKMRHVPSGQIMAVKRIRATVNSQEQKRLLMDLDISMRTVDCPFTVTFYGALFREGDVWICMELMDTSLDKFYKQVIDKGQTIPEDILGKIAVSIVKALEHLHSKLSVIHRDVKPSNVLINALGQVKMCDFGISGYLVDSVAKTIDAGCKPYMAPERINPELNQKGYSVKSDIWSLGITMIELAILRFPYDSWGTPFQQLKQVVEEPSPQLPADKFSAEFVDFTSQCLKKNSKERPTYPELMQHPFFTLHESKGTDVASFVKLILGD
# Sequence of UniProt Q13976 (whole entry, looked up): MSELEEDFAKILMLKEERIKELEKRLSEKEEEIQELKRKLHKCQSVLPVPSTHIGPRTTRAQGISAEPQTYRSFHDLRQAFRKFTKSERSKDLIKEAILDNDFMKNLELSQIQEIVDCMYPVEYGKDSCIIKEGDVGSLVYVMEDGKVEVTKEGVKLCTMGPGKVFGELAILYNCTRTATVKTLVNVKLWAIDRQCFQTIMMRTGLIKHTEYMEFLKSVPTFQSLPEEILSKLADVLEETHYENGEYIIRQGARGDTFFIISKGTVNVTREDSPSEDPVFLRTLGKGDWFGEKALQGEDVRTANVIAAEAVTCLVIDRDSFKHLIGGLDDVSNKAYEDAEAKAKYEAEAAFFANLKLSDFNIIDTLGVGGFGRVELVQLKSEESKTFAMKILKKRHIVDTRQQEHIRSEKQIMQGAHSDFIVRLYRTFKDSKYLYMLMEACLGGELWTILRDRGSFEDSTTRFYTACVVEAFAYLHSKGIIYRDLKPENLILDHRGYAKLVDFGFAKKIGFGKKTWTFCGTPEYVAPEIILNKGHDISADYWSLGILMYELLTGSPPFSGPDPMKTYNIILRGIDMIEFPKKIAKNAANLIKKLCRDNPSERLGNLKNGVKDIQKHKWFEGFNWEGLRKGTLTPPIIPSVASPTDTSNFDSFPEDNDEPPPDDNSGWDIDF
# Sequence of UniProt P68400 (whole entry, looked up): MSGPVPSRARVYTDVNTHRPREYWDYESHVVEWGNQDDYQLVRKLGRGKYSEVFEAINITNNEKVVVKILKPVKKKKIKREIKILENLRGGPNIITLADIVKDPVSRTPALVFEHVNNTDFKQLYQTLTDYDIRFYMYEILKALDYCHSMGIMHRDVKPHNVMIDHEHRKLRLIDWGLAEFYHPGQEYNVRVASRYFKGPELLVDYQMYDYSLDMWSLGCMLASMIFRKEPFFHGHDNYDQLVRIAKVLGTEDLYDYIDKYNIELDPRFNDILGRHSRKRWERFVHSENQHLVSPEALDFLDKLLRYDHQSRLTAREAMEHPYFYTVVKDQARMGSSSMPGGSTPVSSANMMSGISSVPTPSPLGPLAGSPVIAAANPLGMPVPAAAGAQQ
# Sequence of UniProt Q96Q40 (whole entry, looked up): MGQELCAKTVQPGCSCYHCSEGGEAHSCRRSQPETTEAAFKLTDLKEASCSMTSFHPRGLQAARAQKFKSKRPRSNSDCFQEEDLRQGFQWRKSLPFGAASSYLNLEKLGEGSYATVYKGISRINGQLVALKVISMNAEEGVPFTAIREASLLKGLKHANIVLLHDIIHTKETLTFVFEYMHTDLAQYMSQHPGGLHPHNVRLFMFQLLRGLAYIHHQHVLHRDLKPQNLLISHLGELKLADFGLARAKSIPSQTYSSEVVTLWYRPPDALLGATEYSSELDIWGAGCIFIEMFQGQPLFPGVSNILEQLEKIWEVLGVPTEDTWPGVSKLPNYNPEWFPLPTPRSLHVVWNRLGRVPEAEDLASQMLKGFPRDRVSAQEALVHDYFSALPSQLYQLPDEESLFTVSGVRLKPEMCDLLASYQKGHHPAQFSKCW
# Sequence of UniProt P51957 (whole entry, looked up): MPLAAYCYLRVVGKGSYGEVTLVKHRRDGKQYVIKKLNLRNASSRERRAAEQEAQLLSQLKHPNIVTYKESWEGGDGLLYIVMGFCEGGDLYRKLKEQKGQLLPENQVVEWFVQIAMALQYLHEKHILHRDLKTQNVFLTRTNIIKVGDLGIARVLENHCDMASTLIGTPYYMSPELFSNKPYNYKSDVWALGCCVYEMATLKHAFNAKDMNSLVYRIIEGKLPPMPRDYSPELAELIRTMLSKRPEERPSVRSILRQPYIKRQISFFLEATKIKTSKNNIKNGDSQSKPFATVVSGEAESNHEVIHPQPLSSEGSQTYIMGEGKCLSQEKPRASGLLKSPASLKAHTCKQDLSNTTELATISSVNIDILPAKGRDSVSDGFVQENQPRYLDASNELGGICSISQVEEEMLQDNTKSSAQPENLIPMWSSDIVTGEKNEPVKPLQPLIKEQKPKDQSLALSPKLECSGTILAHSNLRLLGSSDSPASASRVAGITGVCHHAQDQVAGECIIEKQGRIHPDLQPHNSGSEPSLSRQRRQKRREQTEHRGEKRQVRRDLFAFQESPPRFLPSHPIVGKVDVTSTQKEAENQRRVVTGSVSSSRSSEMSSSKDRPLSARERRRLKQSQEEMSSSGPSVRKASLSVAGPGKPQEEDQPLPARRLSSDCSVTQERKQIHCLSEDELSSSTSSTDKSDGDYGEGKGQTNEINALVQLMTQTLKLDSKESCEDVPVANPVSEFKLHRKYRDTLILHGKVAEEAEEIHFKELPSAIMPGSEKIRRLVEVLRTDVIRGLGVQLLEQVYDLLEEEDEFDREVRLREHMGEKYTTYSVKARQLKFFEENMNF
# Sequence of UniProt Q04759 (whole entry, looked up): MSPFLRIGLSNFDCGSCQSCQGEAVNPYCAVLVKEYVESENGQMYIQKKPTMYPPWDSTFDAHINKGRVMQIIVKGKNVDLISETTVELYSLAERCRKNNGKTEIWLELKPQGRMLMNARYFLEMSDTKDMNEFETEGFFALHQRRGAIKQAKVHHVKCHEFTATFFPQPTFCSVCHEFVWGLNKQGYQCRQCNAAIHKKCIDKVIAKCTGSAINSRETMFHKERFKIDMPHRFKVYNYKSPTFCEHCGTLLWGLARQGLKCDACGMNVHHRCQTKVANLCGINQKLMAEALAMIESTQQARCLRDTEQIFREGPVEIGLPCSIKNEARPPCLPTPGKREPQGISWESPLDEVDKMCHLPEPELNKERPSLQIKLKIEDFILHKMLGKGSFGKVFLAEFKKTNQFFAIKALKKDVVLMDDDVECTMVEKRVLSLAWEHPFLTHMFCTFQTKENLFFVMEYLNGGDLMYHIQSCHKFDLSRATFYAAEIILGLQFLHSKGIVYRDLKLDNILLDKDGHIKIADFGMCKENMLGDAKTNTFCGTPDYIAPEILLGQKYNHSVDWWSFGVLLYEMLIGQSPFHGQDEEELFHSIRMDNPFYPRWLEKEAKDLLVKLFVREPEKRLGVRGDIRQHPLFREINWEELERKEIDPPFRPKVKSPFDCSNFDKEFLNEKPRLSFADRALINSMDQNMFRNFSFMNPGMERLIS

# Sample 1
# SMILES: CNCc1ccccc1-c1csc([C@H](C)Nc2nc(C)nc3cc(OC)c(OC)cc23)c1
# Read-out: cell-free assay
# Method: competition with immobilised ligand
# Tested at: 1 µM
target,remaining binding
"KIT (Homo sapiens, UniProt P10721, V559D/V654A)",100%
"RPS6KB1 (Homo sapiens, UniProt P23443)",83%
"DDR2 (Homo sapiens, UniProt Q16832)",94%
"CHUK (Homo sapiens, UniProt O15111)",90%
"CDKL2 (Homo sapiens, UniProt Q92772)",100%
"PLK4 (Homo sapiens, UniProt O00444)",76%
"SNRK (Homo sapiens, UniProt Q9NRH2)",93%
"EGFR (Homo sapiens, UniProt P00533, L861Q)",97%
"AKT3 (Homo sapiens, UniProt Q9Y243)",95%
"EGFR (Homo sapiens, UniProt P00533, A750P/del747-749)",98%
"MYLK3 (Homo sapiens, UniProt Q32MK0)",100%
"Tyrosine-protein kinase ABL1, phosphorylated (ABL1, Homo sapiens, UniProt P00519, H396P)",95%
"CAMK2B (Homo sapiens, UniProt Q13554)",100%
"PTK6 (Homo sapiens, UniProt Q13882)",100%
"CDK7 (Homo sapiens, UniProt P50613)",61%
"MAP2K5 (Homo sapiens, UniProt Q13163)",87%
"Tyrosine-protein kinase ABL1, non-phosphorylated (ABL1, Homo sapiens, UniProt P00519, T315I)",95%

# Sample 2
# SMILES: COc1ccc2[nH]c3c4[nH]c5ccc(OC)cc5c4c4c(c3c2c1)C(=O)NC4=O
# Tested at: 1 µM
target,assay,setting,scale,remaining binding [%]
"CDK15 (Homo sapiens, UniProt Q96Q40)",competitive binding,PFTAIRE2,,91
"MAP2K5 (Homo sapiens, UniProt Q13163)","competitive binding panel, measured: MEK5",,relative to: vehicle,0.7
"PRKCQ (Homo sapiens, UniProt Q04759)",competitive binding panel,,relative to: vehicle,44
"NEK5 (Homo sapiens, UniProt Q6P3R8)",competitive binding panel,,relative to: vehicle,76
"DCLK1 (Homo sapiens, UniProt O15075)","competitive binding panel, measured: DCAMKL1",,relative to: vehicle,90
"TNNI3K (Homo sapiens, UniProt Q59H18)",competitive binding panel,,relative to: vehicle,90
"CHUK (Homo sapiens, UniProt O15111)",competitive binding,IKK-alpha,,89

# Sample 3
# Structure (SMILES): CN(C)CCCn1cc(C2=C(c3c[nH]c4ccccc34)C(=O)NC2=O)c2ccccc21
# Read-out: enzyme activity
# Mode: inhibitor
# Tested at: 0.5 µM
# Relative to: control
target,remaining activity [%]
"MAP2K6 (Homo sapiens, UniProt P52564)",97.4
"MAPK12 (Homo sapiens, UniProt P53778)",95.9
"LRRK2 (Homo sapiens, UniProt Q5S007)",89.8
"NEK4 (Homo sapiens, UniProt P51957)",94.3
"WNK2 (Homo sapiens, UniProt Q9Y3S1)",107
"CSNK2A1 (Homo sapiens, UniProt P68400)",99.5
"EPHA5 (Homo sapiens, UniProt P54756)",92
"MAP4K2 (Homo sapiens, UniProt Q12851)",94.2
"PRKCI (Homo sapiens, UniProt P41743)",55.9
"PRKG1 (Homo sapiens, UniProt Q13976)",38.3
"IRAK4 (Homo sapiens, UniProt Q9NWZ3)",135
"LYN (Homo sapiens, UniProt P07948)",84.1

# Sample 4
# Cell line: mouse MPNST tumor cells
# Method: high-content nuclear imaging
# Measured: cell number
# Tested at: 10 µM
# Time: 12 h
# Notes: mean of 2 replicates
# Relative to: plate mean
# Direction: higher = more cells
Structure (SMILES),nuclei count
COC(=O)[C@H]1[C@H]2C[C@H]3c4[nH]c5ccccc5c4CCN3C[C@H]2CC[C@@H]1O,0.0559 z-score
COC(=O)c1csc(C(=O)c2c[nH]c3ccccc23)n1,0.345 z-score
Cc1ccc(NC2=CC(=O)c3sc(C)nc3C2=O)cc1,-4.66 z-score
O=C(O)CCCCN(CCc1ccccc1OCc1ccc(CCc2ccccc2)cc1)Cc1ccc(C(=O)O)cc1,0.836 z-score
O=c1[nH]c(=O)n([C@H]2C[C@H](O)[C@@H](CO)O2)cc1C(F)(F)F,-0.258 z-score and -1.66 z-score
CN(C)CC/C=C1/c2ccccc2Sc2ccc(Cl)cc21,-5.16 z-score
CCCC(=O)Nc1ncnc2c1ncn2[C@@H]1O[C@@H]2COP(=O)(O)O[C@H]2[C@H]1OC(=O)CCC,-0.347 z-score and -0.102 z-score

# For quick reference, copied from above (sample 1):
target,remaining binding
"CAMK2B (Homo sapiens, UniProt Q13554)",100%
"PTK6 (Homo sapiens, UniProt Q13882)",100%
"CDK7 (Homo sapiens, UniProt P50613)",61%
